Assay results pooled from the literature.
A part holds a random share of what one study measured.

Sample 1 — technique: RNA Bind-n-Seq; molecule type: RNA; matrix: in vitro; tested at: 365 nM; baseline: no-protein control; reading: higher = stronger binding; endpoint: RBNS enrichment (R)
Target: RNA binding protein fox-1 homolog 2, RRM domain, GST-SBP tag (RBFOX2, Homo sapiens, UniProt O43251-10, residues 100-194)
Notes: natural RNA segment, single round, ends assumed
All sequences stand within: GGGAGUUCUACAGUCCGACGAUC … UGGAAUUCUCGGGUGCCAA
Construct (chain): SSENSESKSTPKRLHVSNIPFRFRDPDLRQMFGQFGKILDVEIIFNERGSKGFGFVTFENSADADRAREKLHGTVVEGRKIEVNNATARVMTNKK
Oligonucleotide = CUAAAAUCAUGGACUGGCUUUCUGGUUGGAUUUCAGGUAAGAUGUGUUUAAGGCCAGAGCUUUUCUCAGUAUUUGAUUUUUUUCCCCAAUAUUUGAUUUUUUAAAAAUAU; result = 0.761
Oligonucleotide = UGGGUAUCAGUUUCGGUAGAGGUGCAGCAUCGUGACACUUUUGCUAACAGGUACCACUUCUGAUCACCCUGUACAUACAUGAGCCGAAAGGCACAAUCACUGUUUCAGAU; result = 0.526
Oligonucleotide = AAUGUGCAGCAGGAGGUCCUUUUCCUUCUCUACCUUCCUCUUCUCCCUUUCCCUGGGGCCAGAUCAGGACACAGCACAGGGCAGGAGGCCCUGCCUAGCUUAAAGUAUAG; result = 0.234
Oligonucleotide = GACUGGCCGUGAUGGGAAUGACAGUGAGAAGGUCCGCCUGUGCGCGUGGAACACUGUGGACGCUCGACUUCCAAGGGUCUUCUCACCCGUAAUGCUGCAUUACAUGUAGG; result = 0.651
Oligonucleotide = GUAAGGCUCCUGUUGGCCAGUAGCUUGUGAUCUGGGACCUCUGGGGCCUCGUGUCUGCCUCACUCCCGGGCCCCAGUCCUGGGUGAAGUUGGCAAAGCACUGGGUAUCUU; result = 0.805
Oligonucleotide = CUUUGAAGAUUUCUCAGAAAACUCAGAAGAAACGCCCUCUUUCAGGAUAAAUGUGGUGUUCCUAGCAGGCUGCUUGUUGAAAUUCCAGUGUUUUAAAAAUAUUUUUGUUG; result = 0.587
Oligonucleotide = UUGUGUUUACUCUUUGUAAAGCAAAGAGGUCUGUAUUUACACACCUUUACCUAGGGGUAUGUUUUCUGCCCUGCUUCCCAGUCCUCAUGAUUAUCUUUAAUACCCUAGGC; result = 0.251
Oligonucleotide = AUUCCCAUGGUUUUAUGACAGACAAGCCUUGUCUUCUAUUCAUAUAGAUAUGCACCUUUUUCUACAUGUAUGGCCUUUACUUACUACACAGCAAGUAGGCCUCAAAGUAA; result = 0.549
Oligonucleotide = UUCAAACAAUCAAGUUGACUCACGUGGGUCCUGAGGCCUGCAGCACGUCGGAUGCUACCCCACUAUGACAGAGGAUUGUGGUCACAACUUGAUGGCUGCGAAGACCUACC; result = 1.13
Oligonucleotide = UUGCUAUAUUGACAGAUUCUUGCCUGUCUGUGUUAUUCUAGGAUCUGUUACAGGUCCAUGGCAAUUACUGUUUAUUUUUUCCUGGAAAAAUAUUUUUUUAUAAAAGGCUU; result = 0.729
Oligonucleotide = AAUGUAAACCGCCUCCACGUGGCGGCAGACUUCCUAAGGCCCCAGCUCGCUGGCCUCGCGCUGGGCGGCUGGGAAUUCCACCUGAGAACAAGUCCCGCAAACCGGGGACG; result = 0.187
Oligonucleotide = CAUAGUAGCAAUUCUGGUGUGGCCAAGGUGUUGGCUGAAGUUUAUUCUUCAUUGGAUGUUUAAAGCAUUUACUCCAUUGUUAAGGUUGGCAUCAUAUAGUCAGUUACUGA; result = 0.487

Sample 2 — technique: RNA Bind-n-Seq; molecule type: RNA; matrix: in vitro; tested at: 200 nM; notes: whole 134-nt RNA, ends assumed; together with: 150 mM LiCl; baseline: input library; reading: higher = stronger binding; endpoint: log2 enrichment; library: 7-deaza-guanosine replaces G
Target: Fragile X messenger ribonucleoprotein 1, C-terminal low-complexity region (Fmr1, Mus musculus, UniProt P35922)
All sequences stand within: GGGAGUUCUACAGUCCGACGAUC … UGGAAUUCUCGGGUGUCAAGG
Oligonucleotide = UGCUGGCAGCCAAGCAGCAGCAGGAGAUGCUGGCAGCCAAGCGGCAGCAGGAGCUGGAGCAGCAGCGGCAGCGGGAGCAGCAGCGGCAGG; result = -1.17
Oligonucleotide = UGCAGACGGGGAACCUGCUGAACUGGGGCCGCCUGCGGAAGAAGUGCCCGUCCACGCACAGCGAGGAGGUGAGCGUGGCGACACUCGCCG; result = -2.46
Oligonucleotide = UCCUGUGCUACACAUCGUAUGUACCGAAUCGGGGUUUUUGGGGAGGGGUUUUUUUGGGGAAAGUAUUAUGUUACGCCGUUCGGAUCUGCA; result = -0.0103
Oligonucleotide = CUGUGCUACACAUCGUAUGUACCGAAUCGGGCCCCCCCGGGGCCCCCCCGGGCCCCCCCGGAAAGUAUUAUGUUACGCCGUUCGGAUCUG; result = -0.835
Oligonucleotide = UGGGAGGUGGAUUUUGUUUAUUUUUUUAGCUCAUUUCCAGGGGUGGGAAUUUUUUUUUUAUAUGUGUCAUGAAUAAAGUUGUUUUUGAAA; result = 0.34
Oligonucleotide = GCAGAAAGUAAAAACAAAUGGAAAUGCUUCGGAUAGUGGCAGGGGUGGGGGUUGCUAAGGAAAGGGUGGGAUGGGAGUGGGUAAAGAGUU; result = 1.7
Oligonucleotide = UCCUGUGCUACACAUCGUAUGUACCGAAUCGGGGAAAAAGGGGUUUUUGGGGAAAGGGGAAAGUAUUAUGUUACGCCGUUCGGAUCUGCA; result = -1.06
Oligonucleotide = UGGCUUUCACCCCCAACCAGUGACCAAAGACUUGACCACUCAAAGUCCAGCUCCCCAGAACACUGCUCGACAUGGACACCGGUGUGAUUG; result = 1.43
Oligonucleotide = UGUGUGACUUCCUUGGAGAGAAGAUUGCAUCUGUUUUGGGUAUCAGCACCCCAAAGUACCAAUAUGCCAUUGAUGAAUAUUAUCGGAUGA; result = -0.773
Oligonucleotide = UCCUCAAGUCCUGUGCUACACAUCGUAUGUACCGAAUCGGGUGGGUGGUGGGAAAGUAUUAUGUUACGCCGUUCGGAUCUGCACUUCCAG; result = 0.878
Oligonucleotide = CACAGACAACACGCACCCACACAGACACAGAGGGAAGGGGUAAAGAUGGGGACAGGGUGCACAGCAGGGCGGGGUAGGACCCCAGCCCCU; result = -0.313

Sample 3 — technique: protein-binding microarray; molecule type: double-stranded DNA, one strand shown; matrix: in vitro; tested at: 250 nM; notes: 60-bp whole probe; together with: salmon DNA 0.4 mg/ml; baseline: random background probes; reading: higher = stronger binding; endpoint: log fluorescence; all sequences stand within: GCCTAGCAC … GTCTTGATTCGCTTGACGCTGCTG
Target: Interferon regulatory factor 5, full length, phosphomimetic (IRF5, Homo sapiens, UniProt Q13568-2, residues 1-514, K96S/S451D/S453D/S456D/S462D)
Oligonucleotide = TTAGGACTGGTTCTCCTTTAGTGCTAG; result = -0.174 z-score
Oligonucleotide = GACGATATCGGGTAACGAGACGTGCTA; result = 1.99 z-score
Oligonucleotide = TTAGGAGTGCTTTTCCTTTAGTGCTAG; result = 0.113 z-score
Oligonucleotide = GACGAACTGTGTATCGAGACGTGCTAG; result = 0.725 z-score
Oligonucleotide = GTAGGTCTCCTTCTCCTTTAGTGCTAG; result = -0.282 z-score
Oligonucleotide = TTAGGTTTCGGGACTGGCTTAGTGCTA; result = 6.14 z-score
Oligonucleotide = GACGAACTGGACACTGGGGACGTGCTA; result = -0.376 z-score
Oligonucleotide = TTAGGTTTCGGTTCCGATTAGTGCTAG; result = 10.6 z-score
Oligonucleotide = GACGTACTGAGACTGGAGACGTGCTAG; result = -0.465 z-score
Oligonucleotide = GACGCTATCCTTTTCCTGACGTGCTAG; result = 0.269 z-score
Oligonucleotide = TTAGGTTTCCTTATCTTTTAGTGCTAG; result = 1.04 z-score
Oligonucleotide = AGCTGTTTGAGAAATCAGATGGTGCTA; result = 0.166 z-score
Oligonucleotide = GTCGATTTCGGGACTGGAGACGTGCTA; result = 2.84 z-score
Oligonucleotide = TTAGGTATCGACTATCGGTTGGTGCTA; result = 7.49 z-score
Oligonucleotide = TCAAAAATGATTGGTTGACTGTGCTAG; result = 0.204 z-score
Oligonucleotide = GACGGTATCGACACTGAGGACGTGCTA; result = 1.7 z-score
Oligonucleotide = TTAGGTTTCCTTTCCCCTTAGTGCTAG; result = 1.72 z-score

Sample 4 — technique: aptamer microarray, sandwich; molecule type: DNA with 2'F-ANA; matrix: in vitro; tested at: 200 nM; together with: Cy3 exosite-II aptamer, 400 nM; reading: higher = stronger binding; endpoint: mean fluorescence intensity; oligonucleotide: GGTTGGTGTGGTTGG
Target: Prothrombin, mature alpha-thrombin (F2, Homo sapiens, UniProt P00734)
Notes: whole 15-mer aptamer, many near background
Modification = 2'F-ANA at 4 5 6 10 13 14; result = 43.3 a.u.
Modification = 2'F-ANA at 2 3 8 10 11; result = 391 a.u.
Modification = 2'F-ANA at 2 4 7 8 9 10 11 13 15; result = 73.8 a.u.
Modification = 2'F-ANA at 3 4 5 8 14; result = 50.7 a.u.
Modification = 2'F-ANA at 2 4 5 6 8 11 14 15; result = 47.6 a.u.
Modification = 2'F-ANA at 3 4 5 10 11 12 14; result = 49.2 a.u.
Modification = 2'F-ANA at 1 3 6 7 8 9 10 13 14 15; result = 65.3 a.u.
Modification = 2'F-ANA at 1 2 3 5 7 8 9 10 11 14; result = 47.5 a.u.
Modification = 2'F-ANA at 2 3 4 7 8 15; result = 734 a.u.
Modification = 2'F-ANA at 3 6 9 10 11 12 14; result = 381 a.u.
Modification = 2'F-ANA at 1 2 3 4 6 10 12 15; result = 157 a.u.
Modification = 2'F-ANA at 1 2 4 6 9 11 14; result = 43.4 a.u.
Modification = 2'F-ANA at 1 2 4 5 7 12 15; result = 110 a.u.
Modification = 2'F-ANA at 1 6 8 13; result = 156 a.u.
Modification = 2'F-ANA at 1 2 5 9 10 14 15; result = 49.4 a.u.
Modification = 2'F-ANA at 4 5 6 7 8 10 11 13; result = 47.7 a.u.
Modification = 2'F-ANA at 1 4 5 8 9 11 12; result = 91.3 a.u.
Modification = 2'F-ANA at 1 2 3 4 7 9 10 12 13 14; result = 53.4 a.u.
Modification = 2'F-ANA at 2 5 8 11 12; result = 137 a.u.
Modification = 2'F-ANA at 1 2 6 8 9 11 12 13 14 15; result = 77.9 a.u.
Modification = 2'F-ANA at 1 7 8 10 12 13 15; result = 76.6 a.u.
Modification = 2'F-ANA at 2 3 5 7 9 11 13; result = 72.5 a.u.
Modification = 2'F-ANA at 4 5 9 10 13 14; result = 45.2 a.u.

Excerpt of the above (sample 4):
Modification = 2'F-ANA at 1 2 4 6 9 11 14; result = 43.4 a.u.
Modification = 2'F-ANA at 1 2 4 5 7 12 15; result = 110 a.u.
Modification = 2'F-ANA at 1 6 8 13; result = 156 a.u.
Modification = 2'F-ANA at 1 2 5 9 10 14 15; result = 49.4 a.u.
Modification = 2'F-ANA at 4 5 6 7 8 10 11 13; result = 47.7 a.u.
Modification = 2'F-ANA at 1 4 5 8 9 11 12; result = 91.3 a.u.
Modification = 2'F-ANA at 1 2 3 4 7 9 10 12 13 14; result = 53.4 a.u.
Modification = 2'F-ANA at 2 5 8 11 12; result = 137 a.u.
Modification = 2'F-ANA at 1 2 6 8 9 11 12 13 14 15; result = 77.9 a.u.
